Measurements of several laboratories.
Compare with care: the assays were run in different laboratories. Numbers after ± are the reported error.

| SMILES | assay | test system | conditions | half-life [h] |
| --- | --- | --- | --- | --- |
| COCc1nc(C(F)(F)F)[nH]c1-c1cc(C(=O)N2CC(c3ccc(C#N)cc3)C2)c(C)cc1C |  | mouse | oral, 10 mg/kg | 1.94 |
| Cc1ccc(CNC(=O)Cc2ccc(-c3ccc(OCCN4CCOCC4)cc3)cn2)cc1 |  | ICR mouse | intravenous, 2 mg/kg | 7.05 ± 1.92 |
| CCCCCCCCCCCCCCCC(=O)NCCOCCOCCOCCOCCOCCOCCOCCOCCC(=O)NCCCC[C@H](NC(=O)CNC(=O)[C@@H]1CSSC[C@H](N)C(=O)N[C@@H](Cc2ccc(O)cc2)C(=O)N[C@@H]([C@@H](C)CC)C(=O)N[C@@H](CCC(N)=O)C(=O)N[C@@H](CC(N)=O)C(=O)N1)C(=O)NCC(N)=O |  | male C57BL/6J mouse, plasma | subcutaneous, dose not given | 3.2 |
| COc1cc(/C=C/C(=O)NCCn2c(C)cc3ccccc32)cc(OC)c1OC |  | mouse, plasma | intraperitoneal, 5 mg/kg | 0.6 |
| CN(C(=O)c1ccn2ncc(-c3ccc(C(N)=O)cc3)c2c1)c1ccc(C#N)cn1 |  | CD-1 mouse, Wistar rat, rhesus monkey, plasma | oral, suspension, all three species | 2 to 4 |
| Cc1cc2c(c(=O)o1)C=C1CCC(C(C)CNCc3ccc(O)cc3)CC1O2 (stereo not shown) |  | mouse, plasma | oral, dose not given | 2.67 |
| CCC(=O)N(C)c1ccc(Cl)c(Cl)c1 | LC-MS/MS | C57BL/6 mouse female, plasma |  | ~0.5 |
| Clc1ccc(C(c2c[nH]c3ccccc23)c2c[nH]c3ccccc23)cc1 |  | mouse C57BL/6 male, brain | oral, 25 mg/kg | 4.4 ± 0.283 |
| Cc1cccc(O[C@H]2CCC[C@@H](C(C)CNCc3ccncc3)C2)c1 (relative stereo) |  | C57BL/6 mouse female, plasma | oral, 25 mg/kg | 2.61 |
| COc1ccc(C(=O)c2c(C(=O)NCCCN(C)C)oc3ccc(Cl)cc3c2=O)cc1OC |  | C57BL/6 mouse, male, brain | intraperitoneal and oral, 5 mg/kg | 6.6 to 11 |
| COc1cccc2c1C(=O)c1c(O)c3c(c(O)c1C2=O)CC(O)(C(=O)CO)CC3OC1CC(NC(=O)C[C@H](N)C(=O)O)C(O)C(C)O1 (stereo partly shown) |  | healthy mouse, plasma | intravenous, 5 mg/kg | 0.819 |
| C=CC(=O)NCc1ccc(-n2nc3c(=O)[nH]nc(N)c3c2-c2oc3ccc(C)cc3c2C)cc1 |  | BALB/c nude mouse, whole blood | 1 µM, 37 °C | 72.9 |
| CCN(CC)C(=O)c1ccc(-c2cc(NCCCN3CCCCC3)c3ccccc3n2)cc1 |  | mouse B6 male, plasma |  | ~5 |
| COc1ccc(-c2ccn(CC[C@](C)(C(=O)NO)S(C)(=O)=O)c(=O)c2)c(F)c1 |  | CF-1 mouse, female | subcutaneous, 18.75 mg/kg | 0.6 ± 0.03 |
| Cc1c(C(=O)Nc2ccn(C)n2)ncn1Cc1cccc(C(F)(F)F)c1 |  | C57BL/6 mouse, plasma | oral, 10 mg/kg, single dose, mean | 1.4 |
| NC(=O)c1ccc(C(=O)NOCc2ccc(Sc3cccc(Cl)c3)c(C(F)(F)F)c2)cc1 |  | male ICR mouse, plasma | oral, 60 mg/kg | 0.58 |
